# Assay results pooled from the literature.
# Numbered parts are unrelated; each lists some results of a single study.

# Series 1
# Target: RING finger protein unkempt homolog, zinc fingers 1-6, GST-SBP tag (UNK, Homo sapiens, UniProt Q9C0B0, residues 30-357)
# Chain of UniProt Q9C0B0 (30-357, looked up): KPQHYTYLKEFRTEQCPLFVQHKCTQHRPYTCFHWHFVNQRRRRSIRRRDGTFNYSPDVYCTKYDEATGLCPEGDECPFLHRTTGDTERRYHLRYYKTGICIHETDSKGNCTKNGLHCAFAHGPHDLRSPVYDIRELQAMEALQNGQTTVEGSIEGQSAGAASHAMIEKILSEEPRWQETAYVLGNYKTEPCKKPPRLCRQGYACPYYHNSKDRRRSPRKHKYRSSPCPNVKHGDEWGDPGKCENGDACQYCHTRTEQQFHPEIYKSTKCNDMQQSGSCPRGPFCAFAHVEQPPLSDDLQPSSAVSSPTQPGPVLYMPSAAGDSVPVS
# Technique: RNA Bind-n-Seq
# Form: RNA
# Matrix: in vitro
# Concentration: not given
# Notes: RNA with constant flanks, ends assumed
# Baseline: input RNA pool
# Direction: higher = stronger binding
# All sequences stand within: GGGAGUUCUACAGUCCGACGAUC … CAACAGAGGAUUGAGCAUCA
Oligonucleotide,bound/input enrichment [ratio]
UCCUGUGGGUUCUUGGGUGUGUUUGCCACAUCAAGAUUUUAGGGAAGGGGGGUAUAUGUGCCGCCGGGAUGCCGUUUGAAAACAGGCACUCUUCCCCUGAGGAUGGGAAAGGAGCUCUUC,0.283
CUGUGGUGACUCAGAUAAAGGAUUUGUCGUUAUUAAUCAAAAGGGGAUUGACCCCUUUUCCUCCGAUGCCCUUGCGAAAGAAGGGAUCGUAGCUCUGCGCAGAGCCAAGAGGAGAAACAU,0.174
GCCAUUUUCCCAGAUGGGACGCACAACGACACAUGGCAGUGCCAAGGCUACUUCACUGCACCCGAACAAUUUAUCAAGGAAGUGAUCAAGAGUCAUUCUCCCGAAGACAUGACAAAAACA,0.209
CAGGUAGGUGUUUCUCUGUUAUGUAAGCAAUAACUUUUUCUGUGUCUUAUGGAGUAUGACCCGCAAUUAUUUAUUUCCAUGCUAGACGGUUCUUUGCAUGUGGGUUCCUUAUAGGUGCAG,0.59
GUUCGCCUGUAUCGCAAAGCAUUAGAAGUCUUCCCAGAGUUUGCUGCUGCACAUUCCAAUUCCGCAAGUGUACUGCAACAGCAGGGCAAGCUGCAGGAAGCACUGAUGCACUAUAAAGAA,0.123
UAUAGUAUAGAUUUUAUUUUUAAGAAGUUUAUAUAAUUCUUUUGUGAACCAAUAUGUAAAACCCGAAUAUUUAUUAAACUAAUAAUAUGUAUUAGUAUCAAUAAAAUAUGUAUUUAUUUU,3.32
ACUGGGUUUGGAUUAGGAAUUGUUUUCUCCCUCACCUUCUUUAAGAGAAGAAUGUGGCCAUCCGCCUUUGGUUCUGGCGUGGGAUUGGGAAUGGCCUACUCCAACUGUCAGCAUGACUUU,0.305
GUAAUGUGUCCAUUUAACUUAUUUUUAUAGCACUUAGGCAAUAUUGUUAGUCUUAGUGAGCCGUUCACAUCUUUACAAAAGCAUGCUCUCCCUAUCCAUUGGGCCCACAAUAACACUCUC,5.54
UCACCCACUCUUUGAGUACUUUGACUACGAGUCCAGAAAGAGCAUGAGUUGUUAUGUGCUCCGUAAUGUUCUGGAUUAUAACACAGAAAUUGUCUCUCAAGACCAGGUGGAUUCCAUAAU,0.127
AUCAGAAGAGUGAAAUCUCAUAAAGAAUUUUUGAAUAAAACAACACACCAGCUUUUAUUUGUCCGGCAUCAGUUCAAAAUAGCUUUCUUCAGUGAGUUGAAACAAGAUACACAAAAUGCG,0.273
CCCAUGCUUUUAUGGACACUAGGUAAAACGCCUUCAGCUUAAAAUUUUUGUUAAAUAAUUCCGUUUAUUUUAUUGUUAUCUUCCAGGUGUCUAAAUCUCCAGUCUGUCUGUUGUACUGGU,2.57

# Series 2
# Target: Interferon regulatory factor 7, full length, phosphomimetic (IRF7, Homo sapiens, UniProt Q92985, residues 1-503, S101K/S471D/S472D/S475D/S476D/S477D/S483D/S484D/S487D)
# Technique: protein-binding microarray
# Form: double-stranded DNA, one strand shown
# Matrix: in vitro
# Concentration: 250 nM
# Notes: 60-bp whole probe
# Together with: salmon DNA 0.4 mg/ml
# Baseline: random background probes
# Direction: higher = stronger binding
# All sequences stand within: GCCTAGCAC … GTCTTGATTCGCTTGACGCTGCTG
# Target sequence (chain): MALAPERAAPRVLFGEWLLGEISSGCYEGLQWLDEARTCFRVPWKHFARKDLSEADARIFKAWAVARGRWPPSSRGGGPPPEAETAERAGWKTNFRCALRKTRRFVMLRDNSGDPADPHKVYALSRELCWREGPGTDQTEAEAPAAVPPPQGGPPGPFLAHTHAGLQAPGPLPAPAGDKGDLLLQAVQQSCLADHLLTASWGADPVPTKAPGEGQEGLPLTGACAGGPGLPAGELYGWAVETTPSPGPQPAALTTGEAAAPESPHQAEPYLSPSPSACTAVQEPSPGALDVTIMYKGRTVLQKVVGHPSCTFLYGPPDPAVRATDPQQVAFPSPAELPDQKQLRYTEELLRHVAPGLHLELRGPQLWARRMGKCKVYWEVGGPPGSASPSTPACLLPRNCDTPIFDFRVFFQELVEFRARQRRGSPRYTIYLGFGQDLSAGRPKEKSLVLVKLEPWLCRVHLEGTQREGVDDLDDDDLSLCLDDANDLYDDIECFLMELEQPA
Oligonucleotide,log fluorescence
TTAGGTATTGACACTGGGTTAGTGCTA,-0.657 z-score
CAGGAATTGAAAATTAGTGTTGTGCTA,-0.614 z-score
TCAGAACTGAGTCTCGATTAGTGCTAG,1.32 z-score
GACGGACTGGGGTTTCGGGATGTGCTA,1.87 z-score
GACGGTTTCGACTTTCTGGACGTGCTA,10.3 z-score
ATGACTCTGCCTCTAACTGCGTGCTAG,0.104 z-score
TCAGGTCTTCACTTGGCACTGTGCTAG,-0.0245 z-score
GAAGATATCAGTCTCGAGACGTGCTAG,0.266 z-score
AGAGCTTGTAGCCATCTTTGGTGCTAG,-0.827 z-score
GACGAATTCAGTTCCGAGACGTGCTAG,0.325 z-score
GACGACATCGGGTATCGAGACGTGCTA,-0.261 z-score
TCATATAGGTTGTTTCTAACTGTGCTA,0.16 z-score
CGCTTTTTTTTTTTTTTTTTGTGCTAG,1.31 z-score
GTGTGTTTGAGTCTTCTCCTGTGCTAG,-0.38 z-score
GACGATATCGGCACTGGAGACGTGCTA,-0.659 z-score
TTATATTCCAGTTTCGATTAGTGCTAG,9.74 z-score
GACGGTTTCGGGCTTCGGGACGTGCTA,4.12 z-score
GACGATCTCAGTATCGGGACGTGCTAG,-0.0861 z-score
GACGATATAAGTATCGAGACGTGCTAG,-0.134 z-score
CTAGATATCGGGTTTCGATTAGTGCTA,6.97 z-score
TTAGATCTCGGACTGGATTAGTGCTAG,0.0362 z-score
GACGGACTGCTTTCCCTGACGTGCTAG,-0.0119 z-score
TTAGAACGGGGGTTTCGATTAGTGCTA,7.78 z-score
TTAGGTATCGAGACTGGGTTAGTGCTA,0.125 z-score
TTTCTCTGCTCTTTTCAACAAGTGCTA,1.68 z-score

# Series 3
# Target: RNA binding protein fox-1 homolog 2, RRM domain, GST-SBP tag (RBFOX2, Homo sapiens, UniProt O43251-10, residues 100-194)
# Technique: RNA Bind-n-Seq
# Form: RNA
# Matrix: in vitro
# Concentration: 365 nM
# Notes: natural RNA segment, single round, ends assumed
# Baseline: no-protein control
# Direction: higher = stronger binding
# All sequences stand within: GGGAGUUCUACAGUCCGACGAUC … UGGAAUUCUCGGGUGCCAA
# Residues (chain): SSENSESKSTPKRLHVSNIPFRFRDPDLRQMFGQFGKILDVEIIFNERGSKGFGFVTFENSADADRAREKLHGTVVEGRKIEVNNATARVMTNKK
Oligonucleotide,RBNS enrichment (R)
AGUGCCUUAUUAUGUUUCUCCCUUGAAUGCUUCAGUGUUUUGAGUCAUACUCUAGAAUGGACUGACACUAGGACACACUCAGGACUUUUUUAGUUGUAUUUUAUACCUGU,0.788
UUAAAUUUCAUUGUUUAAUGAAAGGGCAAGUCAAAUGCUUGCCCCAAAUUUAAUACAUGUGAUUUGUGAUAUGUAGCUAAACUUAAUCCAGCUAAUGAAUAUUCUUCAUC,0.307
CACUGGGACCCUUGAGCCAAGGGCAGUCCCUACCAGGUGCCCAAGCCGCAAGUCUCAGGGGGCUUUUGUCUGAGGACCUUCUUGGGGCCAGUCUCUGAGGACGCUGCCAC,0.209
UGUGCCAUUCUGCUCAAAACUAAAUGGUGGUCAGGUUCAAGUAAAGAAAAAUAAAACAAGCUGCAUUUAUAGACUUGCUUGGAAUUGAAAUGAACAUAGCCAGUUCCUAC,0.764
ACUCUGGUUCUUUUAAAAUUAAUUUUGGUUGGUGUUGGGGGAGGCGCGAGUGCGUGUGAGAAGAACCGACCCACCCCGCGCAAGGGGAAGCCUCCUGUCUCCCCUUUCCC,0.477
UUUGAUGCCUUUUAAAUACCUUGAUGCCUAUAGCAUUAGAAAUGCUUUCCUAUUUAAAACAGGUUAGAUUUUAAAAUAGAGCUUUGUAUUGUGUAAUGGUUUUAUAUAUU,2.04
UCCUCUAAGGUGGUUCGAUGUGAGGCGACCUGAAGCUCAGCCCUCGGGAAGCUUCUUGUGUCUGGAAGCUUCUUGUGUCUCCACGUUUCAAUUUUGUUUUGUUUUACCAC,0.49
AUGCAAAGGUUUCACUGAAAAUUUAAAUCAAAACAAAACAAAAACAAAGACCUUGUUACACAGAGAGCCUCCGAUAUCCUAAGUAGGGAGGACACUGUCAGUAGGGAACG,0.507
AGAUGUCAUUUUGAGCUAAAACCCAGUUAGAUGCAGUAAAAAACCACUUUGAGAGAUGGCUUGUGUUAGGCUGAAACUGAUAGAAACGUUAACUGCUGCAGCUCUCUUUG,0.814
ACACACACACUGCCCUGGGGACCAUCCAUGCCCAUCAAACCAAAGGGAAACUCAAACCCCUGGGAAGGUUUCACUCCCCUGAAGAGAGAGAGGAGCCAUAUCUCUCUUUC,0.597
GCAUUGUAAUCGCUUGGUUAAUUGUCCGACAUUGGUCCAGGAACAACUUGUCUUUUCAGCCGGCUGACCUGCAGCCUGUACAGCUCUGAAGCAUCUUUAAAUACGAUAGA,0.976
UGGAUUUCCUUUCGAAUGGCACUACCUUAGGGACAUUCUAGUAUUGCUUCUAUUGUUUGGGCAUUGUGGAUAAUGUACAGAUUUAAAAACAAAUCUUGUUGCUGAUUUGU,0.452

# Series 4
# Target: Histone acetyltransferase KAT6A, both winged helices, GST fusion (KAT6A, Homo sapiens, UniProt Q92794, residues 1-181)
# Technique: protein binding microarray
# Form: double-stranded DNA, one strand shown
# Matrix: in vitro
# Concentration: not given
# Notes: 8-mer, flanks averaged, mean of 2 arrays, mostly near background
# Baseline: not given
# Direction: higher = stronger binding
# Target sequence (chain): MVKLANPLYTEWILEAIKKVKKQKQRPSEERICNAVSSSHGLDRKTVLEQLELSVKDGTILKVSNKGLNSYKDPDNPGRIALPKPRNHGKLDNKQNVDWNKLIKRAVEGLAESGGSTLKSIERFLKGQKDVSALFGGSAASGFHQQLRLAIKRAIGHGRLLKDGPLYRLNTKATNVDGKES
Oligonucleotide,E-score
CAATTGCG,0.186
ATTGATGC,0.0673
GATAGACC,0.107
CCTAGCGC,0.192
CACACACC,-0.0547
CTCAACAA,-0.166
CGAGTCCG,0.273
AGACACTC,-0.168
GCAGGACA,-0.0617
GGTCGAAA,-0.0611
CCAATGGC,-0.0117
ATCTGGAA,-0.0563
ATGTTGCC,0.0722
CGAATATC,-0.0406
ATCACCGA,0.00345
ACGTCGCA,0.113
CAGCCGCC,0.268
CCGGTCAG,0.148
AGCGGTCC,0.136
ACAGGTAT,-0.112

# Repeated from above (series 4):
Oligonucleotide,E-score
ATCACCGA,0.00345
ACGTCGCA,0.113
CAGCCGCC,0.268
CCGGTCAG,0.148
